Results pooled from the literature.
Each numbered part is a random draw from the data of one study; scales do not carry over between parts. “And” joins repeats or separate records; there may be more than shown.
UniProt P28335, sequence (whole entry, looked up): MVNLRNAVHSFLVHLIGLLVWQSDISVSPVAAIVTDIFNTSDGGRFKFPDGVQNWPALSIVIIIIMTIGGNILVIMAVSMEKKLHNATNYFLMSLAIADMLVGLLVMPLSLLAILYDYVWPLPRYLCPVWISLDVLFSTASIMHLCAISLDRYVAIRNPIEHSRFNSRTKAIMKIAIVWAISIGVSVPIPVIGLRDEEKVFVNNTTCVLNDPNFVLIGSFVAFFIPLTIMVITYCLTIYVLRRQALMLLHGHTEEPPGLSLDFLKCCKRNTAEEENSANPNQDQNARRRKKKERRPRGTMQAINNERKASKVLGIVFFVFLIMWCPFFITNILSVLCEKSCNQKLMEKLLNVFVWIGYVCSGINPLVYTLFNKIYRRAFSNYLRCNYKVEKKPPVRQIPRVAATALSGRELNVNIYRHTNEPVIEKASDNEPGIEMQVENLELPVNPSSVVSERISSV
UniProt P9WI81, sequence (whole entry, looked up): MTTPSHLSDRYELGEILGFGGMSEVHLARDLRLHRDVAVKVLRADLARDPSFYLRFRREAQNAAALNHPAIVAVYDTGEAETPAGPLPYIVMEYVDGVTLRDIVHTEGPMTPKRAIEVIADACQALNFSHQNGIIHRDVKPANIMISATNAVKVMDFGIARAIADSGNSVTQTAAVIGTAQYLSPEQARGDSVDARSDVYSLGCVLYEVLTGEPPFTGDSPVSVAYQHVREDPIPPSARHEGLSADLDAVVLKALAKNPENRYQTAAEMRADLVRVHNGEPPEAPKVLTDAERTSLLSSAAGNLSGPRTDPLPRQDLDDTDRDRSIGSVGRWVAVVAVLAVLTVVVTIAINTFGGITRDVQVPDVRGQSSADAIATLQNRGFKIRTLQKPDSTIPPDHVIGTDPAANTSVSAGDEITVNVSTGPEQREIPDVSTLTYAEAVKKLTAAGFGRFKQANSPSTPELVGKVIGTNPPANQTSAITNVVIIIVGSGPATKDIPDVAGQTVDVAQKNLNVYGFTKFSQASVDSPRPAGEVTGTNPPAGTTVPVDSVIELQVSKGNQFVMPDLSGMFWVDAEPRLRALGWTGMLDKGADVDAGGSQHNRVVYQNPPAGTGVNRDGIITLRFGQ

Study 1
Cell line: A-375
Tested at: 100 µM
Time: 18 h
Quantity: viability
Structure (SMILES) = C[C@@H]1O[C@@H](O[C@H]2C[C@@H](O)[C@]3(CO)[C@H]4[C@H](O)C[C@]5(C)[C@@H](C6=CC(=O)OC6)CC[C@]5(O)[C@@H]4CC[C@]3(O)C2)[C@H](O)[C@H](O)[C@H]1O; result = 44.5%
Structure (SMILES) = CCCC(C)(COC(N)=O)COC(=O)NC(C)C (stereo not shown); result = 86.9%
Structure (SMILES) = Cc1c(N)nc([C@H](CC(N)=O)NC[C@H](N)C(N)=O)nc1C(=O)N[C@H](C(=O)N[C@H](C)[C@@H](O)[C@H](C)C(=O)N[C@H](C(=O)NCCc1nc(-c2nc(C(=O)NCCC[S+](C)C)cs2)cs1)[C@@H](C)O)[C@@H](O[C@@H]1O[C@@H](CO)[C@@H](O)[C@H](O)[C@@H]1O[C@H]1O[C@H](CO)[C@@H](O)[C@H](OC(N)=O)[C@@H]1O)c1c[nH]cn1; result = 31.2%

Study 2
Cell line: mouse MPNST tumor cells
Method: high-content immunofluorescence imaging
Measured: nuclear SOX9
Tested at: 10 µM
Time: 12 h
Notes: mean of 2 replicates
Baseline: DMSO control
Direction: higher = more nuclear SOX9
Quantity: nuclear SOX9 intensity
Structure (SMILES) = OC(CNc1ccccc1)Cn1c2ccc(Br)cc2c2cc(Br)ccc21 (stereo not shown); result = 163 % of DMSO
Structure (SMILES) = C[C@]12COC(=O)C[C@@H]1CC[C@@H]1[C@@H]2CC[C@@]2(C)[C@H]1CC[C@]2(C)O; result = 91.2 % of DMSO
Structure (SMILES) = CC(N)Cc1c[nH]c2ccc(O)cc12 (stereo not shown); result = 86.7 % of DMSO
Structure (SMILES) = COc1cccc(C2(O)CCCCC2CN(C)C)c1 (stereo not shown); result = 88.8 % of DMSO
Structure (SMILES) = CC(=O)O[C@H]1CC[C@@]2(C)C(=CC[C@@H]3[C@@H]2CC[C@]2(C)C(=O)CC[C@@H]32)C1; result = 97.8 % of DMSO
Structure (SMILES) = CCC1(c2cccc(O)c2)CCCCN(C)C1 (stereo not shown); result = 96.2 % of DMSO and 98.5 % of DMSO
Structure (SMILES) = Cc1cc2c(cc1-c1cc(/C=C/C(=O)O)ccc1O)C(C)(C)CCC2(C)C; result = 126 % of DMSO

Study 3
Target: Eukaryotic initiation factor 4A-I (EIF4A1, Homo sapiens, UniProt P60842)
UniProt P60842, sequence (whole entry, looked up): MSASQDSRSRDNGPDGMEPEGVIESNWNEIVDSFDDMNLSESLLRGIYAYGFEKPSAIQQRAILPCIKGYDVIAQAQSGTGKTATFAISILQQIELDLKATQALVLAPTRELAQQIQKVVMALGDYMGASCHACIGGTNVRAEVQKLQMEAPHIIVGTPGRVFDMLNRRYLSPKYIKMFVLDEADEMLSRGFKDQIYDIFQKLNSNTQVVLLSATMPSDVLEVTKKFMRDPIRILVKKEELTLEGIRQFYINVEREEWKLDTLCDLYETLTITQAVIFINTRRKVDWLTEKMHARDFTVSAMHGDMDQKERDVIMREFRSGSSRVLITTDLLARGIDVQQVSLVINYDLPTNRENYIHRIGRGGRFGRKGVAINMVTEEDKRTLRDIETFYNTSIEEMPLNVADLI
Read-out: RNA clamping
Method: fluorescence polarization
Tested at: concentration not given
With: FAM-labelled poly r(AG)8 RNA
Direction: higher = more clamping
Quantity: fluorescence polarization change
SMILES = COc1ccc([C@@]23Oc4cc(OC)cc(OC)c4[C@]2(OC)c2nc(-c4ccccc4)nc(OC)c2[C@H]3c2ccccc2)cc1; result = -13.4 mP
SMILES = COC(=O)[C@@H]1[C@@H](O)[C@@]2(O)c3c(OC)cc(OC)cc3O[C@@]2(c2ccc(Br)cc2)[C@H]1c1ccccc1; result = 23.1 mP
SMILES = COc1ccc([C@@]23Oc4cc(OC)cc(OC)c4[C@]2(O)[C@H](O)[C@H](C(=O)O)[C@H]3c2ccccc2)cc1; result = 65.8 mP and 59.4 mP
SMILES = COc1ccc([C@]23Oc4cc(OC)cc(OC)c4[C@](O)([C@H](c4ccccc4)[C@H]2C(=O)NCCCCNC(=O)c2ccccc2)[C@H]3O)cc1; result = 3.1 mP
SMILES = COc1ccc([C@]23Oc4cc(OC)cc(OC)c4[C@@]2(O)[C@@H](O)C[C@@H]3c2ccccc2)cc1; result = 0.8 mP
SMILES = COC(=O)[C@@H]1[C@@H](c2ccccc2)[C@]2(c3ccc(OC)cc3)Oc3cc(OC)cc(OC)c3[C@@]23N=C(C)N[C@@]13O; result = 77 mP and 92.5 mP
SMILES = COc1ccc([C@@]23Oc4cc(OC)cc(OC)c4[C@]2(O)c2nc(-c4cnccn4)[nH]c(=O)c2[C@H]3c2ccccc2)cc1; result = 36.9 mP
SMILES = COc1ccc([C@@]23Oc4cc(OC)cc(OC)c4[C@]2(O)c2nc(C(C)C)[nH]c(=O)c2[C@H]3c2ccccc2)cc1; result = 41.1 mP

Other studies, line by line
CDPK1: Calcium-dependent protein kinase 1 (CDPK1, Plasmodium falciparum, UniProt P62344)
UniProt P62344, sequence (whole entry, looked up): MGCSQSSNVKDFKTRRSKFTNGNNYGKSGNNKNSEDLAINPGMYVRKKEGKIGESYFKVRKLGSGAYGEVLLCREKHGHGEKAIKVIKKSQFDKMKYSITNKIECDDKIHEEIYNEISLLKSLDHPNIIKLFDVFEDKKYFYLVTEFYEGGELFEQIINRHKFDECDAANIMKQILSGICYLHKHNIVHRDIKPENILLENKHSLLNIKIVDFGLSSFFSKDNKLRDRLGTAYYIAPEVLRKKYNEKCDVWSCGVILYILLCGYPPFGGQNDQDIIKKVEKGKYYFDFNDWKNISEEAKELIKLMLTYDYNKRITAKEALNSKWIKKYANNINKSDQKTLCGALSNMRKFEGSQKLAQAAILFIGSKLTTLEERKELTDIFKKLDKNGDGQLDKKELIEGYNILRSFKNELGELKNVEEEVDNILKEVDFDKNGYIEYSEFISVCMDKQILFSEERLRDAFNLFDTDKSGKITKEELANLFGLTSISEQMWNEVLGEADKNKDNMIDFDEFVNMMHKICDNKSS
SMILES = COCCOc1nc(-c2ccc(Cl)nc2)nc2c1CN(C(=O)c1ncn3ccccc13)CC2; target = Serine/threonine-protein kinase PknB (pknB, Mycobacterium tuberculosis, UniProt P9WI81); test = cell-free assay, competition with immobilised ligand; setting = 0.1 µM; quantity = remaining binding; result = 86%
SMILES = CCC(=O)N[C@H]1CC[C@@H](C(=O)N(C)c2ccc(-c3nc4ccccc4o3)cc2)C1; target = CDPK1; test = cell-free assay, competition with immobilised ligand; setting = 1 µM; quantity = remaining binding; result = 83%
SMILES = C[C@@H]1CN(c2cc(-c3nn(C)c4ccc(OC5(C)CC5)cc34)ncn2)C[C@H](C)O1; target = CDPK1; test = cell-free assay, competition with immobilised ligand; setting = 1 µM; quantity = remaining binding; result = 83%
SMILES = C[C@@]1(Cc2ccc(C#N)cc2)C(=O)N(c2cc(Cl)cc(Cl)c2)c2ncc(C(=O)NC3(c4nc(C5CCC5)no4)CC3)n21; target = 5-hydroxytryptamine receptor 2C (HTR2C, Homo sapiens, UniProt P28335); test = binding, radioligand binding; setting = 10 µM; quantity = inhibition; result = 32.9%
